Assay results collected from several papers.
Numbered parts are unrelated; each lists some results of a single study. Substitutions count along the parent as printed.

Sample 1 — technique: universal PBM; form: double-stranded DNA, one strand shown; medium: in vitro; tested at: not given; reading: higher = stronger binding
Target: Sal-like protein 4, full length isoform B (SALL4, Homo sapiens, UniProt Q9UJQ4-2, residues 1-616)
Setting: 8-mer, flanks averaged, mean of replicates
Strand	E-score
GCGTGCCC	-0.353
ACATCCCA	-0.107
ATCGTTAC	0.0795
CCTTAACG	-0.0919
CCGTATAC	0.0688
AGTCAAGG	-0.0635
AAGAGAAG	0.0539
CTCTATCC	-0.109
ACGAATAG	0.0616
AAAGTCGT	0.0459
AAGCACTC	-0.166
AAGAACCC	-0.276
CCAGTAAA	0.182
CATTCAGG	-0.0299
ATTTGTTC	0.267
CTAAGAAC	-0.199
CCCGATAC	-0.0602
AAGGGAGT	-0.156
CGACAGAC	-0.192
GACGATCA	0.0101
AGTTAATA	0.345
CATACTGG	-0.0356
CTAAGTAG	-0.0296

Sample 2 — target: CCND3, cyclin fold, Cln2 fusion (human); technique: yeast growth competition, sequencing; medium: yeast; setting: weak parent motif; reference: not given; reading: higher = stronger binding
Parent: NPAT docking peptide (human); PCHRRVLCFDSTT; partner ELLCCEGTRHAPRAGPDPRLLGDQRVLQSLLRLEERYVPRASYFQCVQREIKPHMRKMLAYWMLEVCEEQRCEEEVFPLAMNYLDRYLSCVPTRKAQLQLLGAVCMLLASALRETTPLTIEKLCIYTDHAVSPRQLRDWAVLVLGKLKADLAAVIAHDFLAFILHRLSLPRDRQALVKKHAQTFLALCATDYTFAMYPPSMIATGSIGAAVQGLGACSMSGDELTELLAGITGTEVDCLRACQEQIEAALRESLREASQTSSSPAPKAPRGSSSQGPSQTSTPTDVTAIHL
Change	normalised enrichment score
PCHRRVLCADSTT [F9A]	0.0552
PCHARVLCFDSTT [R4A]	0.117
PAHRRVLCFDSTT [C2A]	0.17
PCHRRALCFDSTT [V6A]	0.114
PCHRKVLCLDSTT [R5K F9L]	0.211
ACHRRVLCFDSTT [P1A]	0.111
PCHRAVLCFDSTT [R5A]	0.118

Sample 3 — technique: protein-binding microarray; form: double-stranded DNA, one strand shown; medium: in vitro; tested at: 2200 nM top; setting: 60-bp whole probe; added: salmon DNA 0.4 mg/ml; reference: random background probes; reading: higher = stronger binding; all sequences stand within: GCCTAGCAC … GTCTTGATTCGCTTGACGCTGCTG
Target: Interferon regulatory factor 7, full length, phosphomimetic (IRF7, Homo sapiens, UniProt Q92985, residues 1-503, S471D/S472D/S475D/S476D/S477D/S483D/S484D/S487D)
Sequence of UniProt Q92985 (whole entry, unmodified, looked up): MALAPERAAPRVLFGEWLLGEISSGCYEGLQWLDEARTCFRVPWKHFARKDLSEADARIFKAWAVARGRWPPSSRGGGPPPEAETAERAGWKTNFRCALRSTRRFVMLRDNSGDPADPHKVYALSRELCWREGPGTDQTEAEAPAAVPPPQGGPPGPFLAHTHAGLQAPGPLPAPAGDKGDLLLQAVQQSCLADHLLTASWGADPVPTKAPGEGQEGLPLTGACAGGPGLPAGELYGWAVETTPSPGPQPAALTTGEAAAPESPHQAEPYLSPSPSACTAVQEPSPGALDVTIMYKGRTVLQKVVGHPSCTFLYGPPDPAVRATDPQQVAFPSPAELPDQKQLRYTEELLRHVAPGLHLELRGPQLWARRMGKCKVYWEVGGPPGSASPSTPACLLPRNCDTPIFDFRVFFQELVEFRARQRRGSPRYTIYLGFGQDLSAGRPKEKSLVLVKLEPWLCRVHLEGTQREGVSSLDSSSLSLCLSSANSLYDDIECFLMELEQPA
Strand	fitted relative affinity
GACGGTCTCGGTCTCTGGACGTGCTAG	0.257 z-score
GACGGCCTCGGTCTCGGGACGTGCTAG	-0.732 z-score
GACCATCTCAGTCTCGAGACGTGCTAG	0.487 z-score
CTTTACATGAGTTTAGAGCCGTGCTAG	0.408 z-score
TTAGGTATCGACACTGGTTTAGTGCTA	0.11 z-score
GTCACATTGCACAATCTTAATGTGCTA	1.11 z-score
GACGGACTGCTACTGCTGACGTGCTAG	0.0135 z-score
GACGGTATAGGACTGGGGACGTGCTAG	-0.352 z-score
TACGGACTGGGGACTGGGGACGTGCTA	-0.512 z-score
GAAAATCCCACATTTGATAAAGTGCTA	0.364 z-score
TTCTGAGCCTGGGTGGATGGGTGCTAG	-0.753 z-score
GCGCCTTGATGTCTGGGTCTGTGCTAG	0.861 z-score
GACGGTCTCGGTTTCGGGAAGTGCTAG	2.68 z-score
TTAGGTCTCGGTATCTGTTAGTGCTAG	0.819 z-score
TCATTTTTAGAAATTTTTACTGTGCTA	0.303 z-score
GACGGTATGGGGTATCGGGACGTGCTA	-0.442 z-score
GGCGGACTGGGGTATCGGGACGTGCTA	-1.52 z-score
GTCGATTTCGGGTTTCGAGACGTGCTA	6.34 z-score
GACAGACTGGACTTTCGGGACGTGCTA	2.48 z-score
GACGGTTTCAACTATCGGGACGTGCTA	0.792 z-score
TTAGGTGTCGGTTTCGGTTAGTGCTAG	6.04 z-score
CCGGGTTTCACCATGTTGGCGTGCTAG	1.42 z-score
TTAGGACTTGGGACTGGGTTAGTGCTA	-0.926 z-score
TCAGAACTGGGGACTGGATTAGTGCTA	-0.579 z-score
GACGGCTTCGGACTGGGGACGTGCTAG	-0.623 z-score

Sample 4 — technique: protein binding microarray; form: double-stranded DNA, one strand shown; medium: in vitro; tested at: not given; reference: not given; reading: higher = stronger binding
Target: Histone acetyltransferase KAT6A, winged helix 2, GST fusion (KAT6A, Homo sapiens, UniProt Q92794, residues 85-181)
Setting: 8-mer, flanks averaged, mean of 2 arrays, mostly near background
Target sequence (chain): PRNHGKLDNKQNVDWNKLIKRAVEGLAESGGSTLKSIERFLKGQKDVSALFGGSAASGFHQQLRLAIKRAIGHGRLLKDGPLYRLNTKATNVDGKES
Strand	E-score
CGCTGCCC	0.175
GCGGGTAA	-0.024
CCATCTCC	0.0718
ACATGTCG	-0.247
AAGCTACC	0.0483
CTATTACA	-0.0623
CGCTACCC	-0.0941
ACGTTGCT	0.0989
AACTAGGA	-0.0805
ATCTAAAC	-0.0347
CCAGTGTA	0.0571
AGAAGATA	-0.11
ATCGCAAC	0.13
CCAAAACA	-0.0925
CCAGGTGA	-0.0871
AAACACTC	-0.0918
CGAGGGCG	0.068
ACGTATGA	0.101
AAAGTAAA	-0.144
ACGACAGC	-0.133
AGCTTCGG	0.00869
CCCTGGCA	0.0412
GACCCCGA	0.0667
GTGCATGA	-0.0376
ACGTCGTG	-0.0627

Sample 5 — technique: DHFR PCA, deep sequencing; medium: yeast; added: (+)-ABA 0.0091 µM; reference: wild-type fitted maximum; reading: higher = stronger binding
Target: ABI1, truncated, D143A, DHFR fusion (Arabidopsis thaliana)
Setting: methotrexate growth selection, single substitutions
Parent: PYL1, truncated, DHFR fusion (Arabidopsis thaliana); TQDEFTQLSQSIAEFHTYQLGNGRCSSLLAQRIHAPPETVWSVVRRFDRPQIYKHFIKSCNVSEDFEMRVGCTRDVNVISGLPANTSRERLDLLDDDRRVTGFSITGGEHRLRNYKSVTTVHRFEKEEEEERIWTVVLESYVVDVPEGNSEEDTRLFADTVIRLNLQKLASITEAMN; partner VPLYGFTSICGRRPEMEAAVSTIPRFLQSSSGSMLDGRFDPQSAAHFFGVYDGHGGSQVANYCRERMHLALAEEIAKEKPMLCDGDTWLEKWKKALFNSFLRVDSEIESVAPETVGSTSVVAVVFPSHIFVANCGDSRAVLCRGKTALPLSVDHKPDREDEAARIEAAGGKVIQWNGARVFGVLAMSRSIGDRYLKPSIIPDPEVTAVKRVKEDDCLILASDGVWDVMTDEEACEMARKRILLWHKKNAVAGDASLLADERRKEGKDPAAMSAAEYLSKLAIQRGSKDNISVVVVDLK
Change	relative binding score [%]
R163S	21.2
G23W	-1.59
S171H	30.7
S80D	16.5
D159E	4.07
R111V	14.6
S42P	-1.18
L112D	-3.16
G102F	-7.21
R45P	-0.37
G108S	-7.29
N114S	2.58
L91Q	-8.62
I162Y	-8

Sample 6 — technique: RNA Bind-n-Seq; form: RNA; medium: in vitro; tested at: not given; reference: input RNA pool; reading: higher = stronger binding
Target: RING finger protein unkempt homolog, zinc fingers 1-6, GST-SBP tag (UNK, Homo sapiens, UniProt Q9C0B0, residues 30-357)
Sequence of UniProt Q9C0B0 (30-357, looked up): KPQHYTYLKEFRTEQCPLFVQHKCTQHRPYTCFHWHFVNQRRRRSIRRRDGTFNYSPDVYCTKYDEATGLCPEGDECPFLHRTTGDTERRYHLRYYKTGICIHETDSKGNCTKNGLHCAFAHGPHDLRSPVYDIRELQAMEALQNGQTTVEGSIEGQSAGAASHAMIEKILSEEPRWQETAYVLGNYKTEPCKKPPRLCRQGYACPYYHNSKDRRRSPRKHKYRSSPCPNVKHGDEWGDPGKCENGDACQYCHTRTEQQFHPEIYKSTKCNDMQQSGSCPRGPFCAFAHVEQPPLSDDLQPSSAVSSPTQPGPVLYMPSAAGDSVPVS
Setting: RNA with constant flanks, human-mouse chimeric sites, ends assumed
Strand	bound/input enrichment [ratio]
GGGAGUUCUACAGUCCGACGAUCUGUAGUUUCUUGAUUUAGUGGCUGGGCCUUUUCUUUCUUUCCUUUAGGAAAAGCCUAAAGAUUAGGUUGUAAGAAAAACAGAAGCCAUGUUUCGAAGACCUGUGUUAAUUACAGGUAGUCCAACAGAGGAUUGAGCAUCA	0.225
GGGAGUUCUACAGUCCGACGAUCUCUUUAAAAAAAAAAUUACAGGAAAAUACAGUGCUUUCCCUCCCAUAGAUCCACGUUCAAGCUCAAAGAGCAAAGGCUUUGCACGGAUCUGAUGAUGCUGAUGAAGAAAGAUUUCUGAGACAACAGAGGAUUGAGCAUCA	0.52
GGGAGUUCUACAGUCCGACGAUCCCCUCCCCGGGCCACCCGCCCGCCCAAGCUCCCCGCCGAGAUCCAGGUUUCUUCUUAUUUCAUAGCAAAUAAGAAAAAUGUUCUACGCACAUUUUGUCCUCAGUAAACGAGGGCCUCUGGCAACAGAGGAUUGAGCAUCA	0.68
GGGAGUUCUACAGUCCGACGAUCAAAGUGAUGACUAUGUUUGUCCAACGACAGGUAUUUUCGGAGAGCAAAGAUGAGAUUGCGUUAGUCCUCUAUGGCACAGAUGGCACUGACAAUCCCCUUGCUGGCAAGGAUCAGUAUCAGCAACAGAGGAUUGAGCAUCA	0.17
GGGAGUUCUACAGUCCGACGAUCCAGCCUCAGAGCCCAGACUUCCUGGAUAUUACCAACCCCAAAGCCGUAUUAGAAAAUGCAUUGAGAAACUUCGCCUGUCUGACCACCGGAGAUGUGAUUGCUAUCAACUACAAUGAGAAGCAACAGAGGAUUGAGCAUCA	0.547
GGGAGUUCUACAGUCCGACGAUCACACAAUAUGAGACCAACAGCUUGGACUUCAAAGUUGGGGCAGAUGGGACAGUCUUCGCCACCCGGGAGCUGCAGGUCCCCUCAGAGCAGGUGGCGUUCACGGUGACUGCAUGGGACAGCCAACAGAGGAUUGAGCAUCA	0.212
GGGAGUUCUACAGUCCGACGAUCGGGUGGGUGGUCAUUGCCGUUUGAGCUGCUGAUUUUCUUAUGAAUCAUUCAAAACUCUCGUGUAGGGUUGACAAUGUGGGGGGGUGGGGGAUCCAGCUUAUUCUUUUAUUUUCAAGUCCACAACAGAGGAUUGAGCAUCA	0.656
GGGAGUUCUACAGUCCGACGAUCUCUGGCCACACUCGUGUGUAUGGUGUUUGCUUUGUGGACACUUCACUGGGCAAGUUUUUCAUCGGCCAGUUUUCGGAUGACCGCCACUGUUCCAGAUUUAGGACUCUAGUGGCUCACUAUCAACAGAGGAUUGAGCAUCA	0.138
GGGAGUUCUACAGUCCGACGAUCACUCUUGACUCUUUCCAUCCUCUUCCUUUCCCUCUUGAUCUUCAAGGCCAUGAAUCCCAAAAUAACAGUCUUAGUGGCUAGCACCCACCCAAACUGAGAAUAAAUCCACCCCAGUGUCUCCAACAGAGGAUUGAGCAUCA	0.605
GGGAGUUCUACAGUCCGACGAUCAUUGUUGAAGCGAAUCCACUCCUAGAAGCAUUUGGAAAUGCAAAGACUGUUCGCAACAAUAAUAGCAGUCGAUUUGGAAAAUUUGUAGAAAUUCAUUUCAAUGAAAAGAGUUCGGUUGUUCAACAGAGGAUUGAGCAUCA	0.294
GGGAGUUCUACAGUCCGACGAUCACAGUUAUAUUGUUGAGUUUCAUUUUCUUGUAUGUUUGUAGUGUCUGCUUGCCUGUGACUUCUGGUAAAAUAAAAUAAGCCUUUGAAAAUAUUUUAGCAUGGUAUUUAACAUUUUCUAAACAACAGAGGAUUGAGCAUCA	0.764

Further values, each from its own experiment
Molecule	target	test	test system	conditions	how to read	quantity	result
PhoQ, residues 284 288 289 292 302 303 SVTLVV	PhoP, residues 12 14 15 18 19 NMSSL (Escherichia coli, UniProt P23836)	Sort-seq, measured: YFP reporter	E. coli	PhoQ-PhoP variant library, added: 10 µM Mg2+	reference: high Mg2+ state, higher = stronger signaling	fold induction	13.2

For quick reference, copied from above (sample 4):
Strand	E-score
ACATGTCG	-0.247
AAGCTACC	0.0483
CTATTACA	-0.0623
CGCTACCC	-0.0941
ACGTTGCT	0.0989
AACTAGGA	-0.0805
ATCTAAAC	-0.0347
CCAGTGTA	0.0571
